{"data": "Measured values pooled from the literature", "note": "Every numbered part comes from another study and shows a few of its results, in no order. Positions count from the first letter of the parent shown."}
{"data": "Block 1", "target": "RING finger protein unkempt homolog, zinc fingers 1-6, SBP tag (UNK, Homo sapiens, UniProt Q9C0B0, residues 30-357)", "method": "RNA Bind-n-Seq", "form": "RNA", "sample": "in vitro", "concentration": "100 nM", "setting": "RNA with constant flanks, vertebrate orthologous sites, ends assumed", "reference": "input RNA pool", "reading": "higher = stronger binding", "constant ends, left off below": "GGGAGUUCUACAGUCCGACGAUC … CAACAGAGGAUUGAGCAUCA", "UniProt Q9C0B0, sequence (30-357, looked up)": "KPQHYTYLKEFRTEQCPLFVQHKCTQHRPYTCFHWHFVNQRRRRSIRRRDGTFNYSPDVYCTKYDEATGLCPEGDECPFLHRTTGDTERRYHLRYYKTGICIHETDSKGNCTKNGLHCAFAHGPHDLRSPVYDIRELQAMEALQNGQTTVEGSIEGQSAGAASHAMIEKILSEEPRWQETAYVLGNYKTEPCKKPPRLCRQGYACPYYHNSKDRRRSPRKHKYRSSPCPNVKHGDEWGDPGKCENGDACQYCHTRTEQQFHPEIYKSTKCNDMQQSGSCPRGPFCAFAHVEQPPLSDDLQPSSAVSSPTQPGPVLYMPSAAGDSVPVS"}
{"Strand": "UUUUAUUGAUCAGGUCUGUAAAUGUGUACUAAAAAAAUCAGAGUUUAUUUAUAAAUAGAAUAGUUUAUUUAAAGAGGUAUUUUCCUCCUUGAUAUCAUGGUAUGCAUAAUUCUGUGUGUU", "bound/input enrichment": "0.501 ratio"}
{"Strand": "GUUGUGACCCAUUUAACAUACACAAAAAAUUAGCCAAAAAAAAUUUGCAUGUAAUUGACUUAGAUGAUGCCACUUUUCUGAGUGCAAAAUUCGGAAGACAGCUUGUACCUGGUUGGAAAC", "bound/input enrichment": "2.04 ratio"}
{"Strand": "AUCCCAGUUUGUAUGCACAUUAUUCACAUUCCUAUCUGUUGUGUUUGCAGAAAUGACAUUUUACCCUUUUCUAAGGGUUACCUUUUGAUUUUCAUAUUUGGUUGCAUGAAGUUGCCCUUU", "bound/input enrichment": "0.312 ratio"}
{"Strand": "CUUACCUGGUUAAUGUGUUUCUAUUUAUUGAGUCUAGUUUGUGCUAAACAUUGUGUUAAAUAGUGGAUUGACUCCACGUUGUUGUGUUGUUUUCAUUGUUGAAAAUAAAUAUAACUUUGU", "bound/input enrichment": "0.367 ratio"}
{"Strand": "AGUCUUACUUGGUUACUAGAAAUGUGUUUUUAUUUAUUGAGGAUAGUUUUGUGCUAAGUCUGUGUUAGAUUUUUGUUGUGUUGCUUUUGUUAUUUAAAAUAAAUAGAACUUUGUAUUUGA", "bound/input enrichment": "0.744 ratio"}
{"Strand": "AACCUCCUGAACAUCUAGCUUUCAAAUUUUGGCUGUUUUAGAUACUGUUUUUAUUUUCUUUAGAGUUUUCCUGUUUGCCAUCUUCUUUUCCCCUGUUCUCAAGGGUUGACUCACAGAUUU", "bound/input enrichment": "4.7 ratio"}
{"Strand": "AGGGACGUUUUGAUGUAAAAAUUGAAGUUAAGAGCUGAUCACAAGCACAAAUCUUUCCCACUAGCCAUUUAAUAAGUUAAAAAAGAUACAAAAACAAACCUACUAGUCUUGAACAAACUG", "bound/input enrichment": "1.53 ratio"}
{"Strand": "UGGUGCCCCACCCUUGUGAGAGAGAGUGGGGAAAGCAGGUGACCCUCAGCUGUUCCGAUUUAGGUUUUUUUUGUUUCUGUUUUUUAAGAGUUACUGUAUUUAUUAUGACGAUGGUGACUC", "bound/input enrichment": "1.74 ratio"}
{"Strand": "CAGCCAACUCCCUUAUCGGCCGGGCUGCUCACAUCGCCGUCCUCGACUCUGAGAUCUUCCUGGAGAAGUUCUUCCUUGUUGCGGGCCUCAAGUUCUUUCAGUAGAACUGCGACAGAUUCA", "bound/input enrichment": "0.477 ratio"}
{"Strand": "CCGAAGCUUUGUAUUUGGCUGCACUUGCAUAAGCUGCUACAAAUAGAAUAAAGAAUUUCAUAGCCUGUAUCUAUCAUUUAGAUGCAUGGUAAAUGGGCUUUGCACACAAUGGGUUUGGAG", "bound/input enrichment": "1.04 ratio"}
{"Strand": "AAGGAGCAGCAUAGGCUGUUUGAGCUUCGGGGAAAUGAGCUUUUGCUUUUUGUAUUUAAAUAGGAUACUUUUAUAUGAUGGGUGCUUUUGAGUGUGAAUGCAGCAGGCUCUCCGUUUCAG", "bound/input enrichment": "0.592 ratio"}
{"data": "Block 2", "target": "CCNB1, cyclin fold, Cln2 fusion (human)", "method": "yeast growth competition, sequencing", "sample": "yeast", "setting": "weak parent motif", "reference": "not given", "reading": "higher = stronger binding", "parent": "CDKN1A docking peptide (human); SKACRRLFGPVDS"}
{"Substitution": "SKACPRLFGPVDS [R5P]", "normalised enrichment score": -0.223}
{"Substitution": "SKACRRLFGEVDS [P10E]", "normalised enrichment score": 0.117}
{"Substitution": "SKACARLFGPVDS [R5A]", "normalised enrichment score": 0.274}
{"Substitution": "SKACRRCFGPVDS [L7C]", "normalised enrichment score": 0.384}
{"Substitution": "SKACQRLFGPVDS [R5Q]", "normalised enrichment score": 0.175}
{"Substitution": "SKACRRLFGMVDS [P10M]", "normalised enrichment score": -0.426}
{"Substitution": "SKACRRLAGPVDS [F8A]", "normalised enrichment score": -0.123}
{"Substitution": "SKACRRLFGVVDS [P10V]", "normalised enrichment score": 0.000629}
{"Substitution": "SKACHRLFGPVDS [R5H]", "normalised enrichment score": 0.0954}
{"Substitution": "SKACRRLFGPVCS [D12C]", "normalised enrichment score": 0.0103}
{"Substitution": "SKACRMLFGPVDS [R6M]", "normalised enrichment score": 0.23}
{"Substitution": "SKACRWLFGPVDS [R6W]", "normalised enrichment score": -0.0763}
{"data": "Block 3", "target": "Interferon regulatory factor 5, full length, phosphomimetic (IRF5, Homo sapiens, UniProt Q13568-2, residues 1-514, K96S/S451D/S453D/S456D/S462D)", "method": "protein-binding microarray", "form": "double-stranded DNA, one strand shown", "sample": "in vitro", "concentration": "250 nM", "setting": "60-bp whole probe", "added": "salmon DNA 0.4 mg/ml", "reference": "random background probes", "reading": "higher = stronger binding", "constant ends, left off below": "GCCTAGCAC … GTCTTGATTCGCTTGACGCTGCTG"}
{"Strand": "TTAGGTTTCCTTCTCCATTAGTGCTAG", "log fluorescence [z-score]": 0.99}
{"Strand": "ATATATATATATACAGATATGTGCTAG", "log fluorescence [z-score]": 1.93}
{"Strand": "TTAGGACTGGGTCTCGGTTGGTGCTAG", "log fluorescence [z-score]": -0.303}
{"Strand": "GACGGTCTCGGTAGCGGGACGTGCTAG", "log fluorescence [z-score]": -0.0366}
{"Strand": "AAAATTTTAACCCTTATTCTGTGCTAG", "log fluorescence [z-score]": 0.677}
{"Strand": "AGATCCATGCTCTGTCGCAGGGTGCTA", "log fluorescence [z-score]": -0.58}
{"Strand": "TTAGGTTTCGGTCTCAGTTAGTGCTAG", "log fluorescence [z-score]": 9.99}
{"Strand": "CTAGGTATCGACACTGGGTTAGTGCTA", "log fluorescence [z-score]": 1.82}
{"Strand": "TCATTTTGTGTTTTCATACTGTGCTAG", "log fluorescence [z-score]": 1.45}
{"Strand": "GACGATTTCGGGACTGGAGGCGTGCTA", "log fluorescence [z-score]": 1.61}
{"Strand": "GACGAACTGAGTATCGAGTCGTGCTAG", "log fluorescence [z-score]": 2.01}
{"Strand": "TTAGATATCGGTTTCGGTTAGTGCTAG", "log fluorescence [z-score]": 10.6}
{"Strand": "TTAGAACTGGGATATCGATTAGTGCTA", "log fluorescence [z-score]": 1.23}
{"Strand": "TCATTATTCTAGCCTCCAACTGTGCTA", "log fluorescence [z-score]": 0.616}
{"Strand": "CCAGGGCTCTAGAGAAATAGGTGCTAG", "log fluorescence [z-score]": -0.431}
{"Strand": "GTCGGTTTCCTTATCCTGACGTGCTAG", "log fluorescence [z-score]": 1.24}
{"Strand": "TTAGATCTCAGTACCGATTAGTGCTAG", "log fluorescence [z-score]": 0.325}
{"Strand": "CTTTCTCTGCTCTTTTCAACAGTGCTA", "log fluorescence [z-score]": 2.12}
{"Strand": "TCACCTATGTCATTTACACTGTGCTAG", "log fluorescence [z-score]": 0.703}
{"data": "Single results of other studies"}
{"Substance": "PhoQ, residues 284 288 289 292 302 303 TAVSDG", "target": "PhoP, residues 12 14 15 18 19 NHFRA (Escherichia coli, UniProt P23836)", "test": "Sort-seq, measured: YFP reporter", "system": "E. coli", "setting": "PhoQ-PhoP variant library, added: 10 µM Mg2+", "how to read": "reference: high Mg2+ state, higher = stronger signaling", "measurement": "fold induction", "result": 1.65}
{"note": "A few entries again (block 1):"}
{"Strand": "AACCUCCUGAACAUCUAGCUUUCAAAUUUUGGCUGUUUUAGAUACUGUUUUUAUUUUCUUUAGAGUUUUCCUGUUUGCCAUCUUCUUUUCCCCUGUUCUCAAGGGUUGACUCACAGAUUU", "bound/input enrichment": "4.7 ratio"}
{"Strand": "AGGGACGUUUUGAUGUAAAAAUUGAAGUUAAGAGCUGAUCACAAGCACAAAUCUUUCCCACUAGCCAUUUAAUAAGUUAAAAAAGAUACAAAAACAAACCUACUAGUCUUGAACAAACUG", "bound/input enrichment": "1.53 ratio"}
{"Strand": "UGGUGCCCCACCCUUGUGAGAGAGAGUGGGGAAAGCAGGUGACCCUCAGCUGUUCCGAUUUAGGUUUUUUUUGUUUCUGUUUUUUAAGAGUUACUGUAUUUAUUAUGACGAUGGUGACUC", "bound/input enrichment": "1.74 ratio"}
{"Strand": "CAGCCAACUCCCUUAUCGGCCGGGCUGCUCACAUCGCCGUCCUCGACUCUGAGAUCUUCCUGGAGAAGUUCUUCCUUGUUGCGGGCCUCAAGUUCUUUCAGUAGAACUGCGACAGAUUCA", "bound/input enrichment": "0.477 ratio"}
{"Strand": "CCGAAGCUUUGUAUUUGGCUGCACUUGCAUAAGCUGCUACAAAUAGAAUAAAGAAUUUCAUAGCCUGUAUCUAUCAUUUAGAUGCAUGGUAAAUGGGCUUUGCACACAAUGGGUUUGGAG", "bound/input enrichment": "1.04 ratio"}
{"Strand": "AAGGAGCAGCAUAGGCUGUUUGAGCUUCGGGGAAAUGAGCUUUUGCUUUUUGUAUUUAAAUAGGAUACUUUUAUAUGAUGGGUGCUUUUGAGUGUGAAUGCAGCAGGCUCUCCGUUUCAG", "bound/input enrichment": "0.592 ratio"}
